Experimental data of several laboratories.
Each line is one published result; not all experiments were run side by side. “And” joins repeats or separate records; there may be more than shown. Numbers after ± are the reported error.
GAP50: Glideosome-associated protein 50 (GAP50, Plasmodium falciparum, UniProt Q8I2X3)
Sodium- and chloride-dependent glycine transporter 2: Sodium- and chloride-dependent glycine transporter 2 (Homo sapiens, UniProt Q9Y345)
Gria1/Gria2: Glutamate receptor AMPA 1/2 (Gria1/Gria2, Rattus norvegicus, UniProt P19490+P19491)

| Structure (SMILES) | target | test | system | conditions | scale | measurement | value |
| --- | --- | --- | --- | --- | --- | --- | --- |
| N=C(N)NCCS(=O)(=O)O | Sodium- and chloride-dependent taurine transporter (SLC6A6, Homo sapiens, UniProt P31641, Y138A) | binding, microscale thermophoresis | – | 43 nM, fitted curve | higher = more binding | fraction bound | 0 |
| Cc1cccnc1-c1ccc(C(N)=O)cc1 | Uridine nucleoside ribohydrolase (Trichomonas vaginalis, UniProt A2FTT0) | enzyme activity, 19F NMR | – | 200 µM, 1-fold dilution | – | inhibition after jump dilution | 60% |
| O=C1C[C@H](c2nc(-c3ccc(F)c4cn[nH]c34)no2)CCCN1c1ccc(F)cc1 (racemic) | Cannabinoid receptor 2 (CNR2, Homo sapiens, UniProt P34972) | agonist, GloSensor cAMP | CHO expressing CB2 | 100 pM | – | cAMP inhibition | 5.71% and -1.14% and 0% |
| COc1ccc2c(c1)C1CC(C)(N2)c2c(C)nc3ccc(OC)cc3c21 (stereo not shown) | GAP50 | binding, surface plasmon resonance | – | 1:1 binding model | – | kon | 1970 M⁻¹ s⁻¹ |
| C=CC(=O)N1CCCC(n2c(=O)c3ncccc3n(Cc3ccc(Oc4ccccc4)cc3)c2=O)C1 (stereo not shown) | Peptidyl-prolyl cis-trans isomerase F, mitochondrial (PPIF, Homo sapiens, UniProt P30405) | thermal proteome profiling | cell proteome | unit not given | baseline: vehicle | melting temperature shift | -4.7 |
| N=C(N)NCCC[C@H](NC(=O)[C@@H]1CCCN1C(=O)[C@H](CCCNC(=N)N)NC(=O)[C@@H]1CCCN1C(=O)[C@H](CCCNC(=N)N)NC(=O)[C@@H]1CCCN1C(=O)[C@H](CCCNC(=N)N)NC(=O)[C@@H]1CCCN1C(=O)[C@H](CCCNC(=N)N)NC(=O)[C@@H]1CCCN1C(=O)[C@H](CCCNC(=N)N)NC(=O)[C@@H]1CCCN1C(=O)[C@H](CCCNC(=N)N)NC(=O)[C@@H]1CCCN1C(=O)[C@H](CCCNC(=N)N)NC(=O)[C@@H]1CCCN1C(=O)[C@H](CCCNC(=N)N)NC(=O)[C@@H]1CCCN1C(=O)[C@H](CCCNC(=N)N)NC(=O)[C@@H]1CCCN1C(=O)[C@H](CCCNC(=N)N)NC(=O)[C@@H]1CCCN1C(=O)[C@H](CCCNC(=N)N)NC(=O)[C@@H]1CCCN1C(=O)[C@H](CCCNC(=N)N)NC(=O)[C@@H]1CCCN1C(=O)[C@H](CCCNC(=N)N)NC(=O)[C@@H]1CCCN1C(=O)[C@H](CCCNC(=N)N)NC(=O)[C@@H]1CCCN1C(=O)[C@H](CCCNC(=N)N)NC(=O)[C@@H]1CCCN1C(=O)[C@H](CCCNC(=N)N)NC(=O)[C@@H]1CCCN1C(=O)[C@H](CCCNC(=N)N)NC(=O)[C@@H]1CCCN1C(=O)[C@H](CCCNC(=N)N)NC(=O)[C@@H]1CCCN1C(=O)[C@H](CCCNC(=N)N)NC(=O)[C@@H]1CCCN1C(=O)[C@H](CCCNC(=N)N)NC(=O)[C@@H]1CCCN1C(=O)[C@H](CCCNC(=N)N)NC(=O)[C@@H]1CCCN1C(=O)[C@H](CCCNC(=N)N)NC(=O)[C@@H]1CCCN1C(=O)[C@H](Cc1ccc(O)cc1)NC(=O)[C@H](CO)NC(=O)CN)C(=O)O | Nucleophosmin (NPM1, Homo sapiens, UniProt P06748) | SANS P(r) analysis | – | 3 molar excess over NPM1, 25 °C | – | radius of gyration | 98.9 ± 1.5 Å |
| OC[C@H]1c2[nH]cnc2[C@H](O)[C@@H](O)[C@@H]1O | bglA (Thermotoga maritima, UniProt Q08638) | ITC | – | pH 6.8, 25 °C | – | -ΔS | -1.82 ± 0.478 kcal/mol |
| CC[C@H](C)[C@H](NC(=O)[C@@H](N)CCC(N)=O)C(=O)N[C@@H](CCCNC(=N)N)C(=O)N[C@@H](CO)C(=O)N[C@@H](Cc1c[nH]cn1)C(=O)N[C@@H](COP(=O)(O)O)C(=O)N[C@@H](Cc1ccc(O)cc1)C(=O)N[C@@H](CC(C)C)C(=O)N[C@@H](CCCNC(=N)N)C(=O)N[C@@H](C)C(=O)N[C@H](C(=O)N[C@@H](CO)C(=O)N[C@@H](CCC(=O)O)C(=O)N[C@H](C(=O)N[C@@H](CO)C(=O)O)C(C)C)C(C)C | Membrane-associated guanylate kinase, WW and PDZ domain-containing protein 2 (Magi2, Mus musculus, UniProt Q9WVQ1) | binding, ITC | – | pH 8.0, 25 °C | – | ΔS | -10.1 cal/mol/K |
| CC1=CC(C)=[N+]2C1=C(CCCN1CCC(O)CC1)c1c(C)cc(C)n1[B-]2(F)F | Sodium- and chloride-dependent glycine transporter 2 | MS binding competition | – | 10 µM | – | remaining specific binding | 89.7 ± 2.8% |
| C#CCOC(=O)[C@@]1(C)C=C(C(=O)OC(C)(C)C)C(=O)CC1 | Mitogen-activated protein kinase 1 (MAPK1, Homo sapiens, UniProt P28482) | enzyme activity, D-SENSOR | – | 44.44 µM, single replicate | – | normalized kinase activity | 0.924 and 0.982 and 0.961 |
| O=C(O)Cc1cc2c(cc1C(=O)c1ccccc1)OCO2 | Gria1/Gria2 | glutamate-evoked current, whole-cell patch clamp | HEK-293T | concentration not given, glutamate alone after washout, with: glutamate | – | current amplitude after recovery | 619 ± 41 pA |
| Cc1cc(-c2ccccc2)cc(C(=O)NNS(=O)(=O)c2ccccc2)c1F | Histone acetyltransferase KAT5 (KAT5, Homo sapiens, UniProt Q92993) | SPR | – | 17 µM | higher = more binding | SPR binding response | 0.329 RU |
| CCCCCC=CC=C1C(=O)C=CC1CC=CCCCC(=O)O (stereo not shown) | Multifunctional methyltransferase subunit TRM112-like protein (TRMT112, Homo sapiens, UniProt Q9UI30) | competitive isoTOP-ABPP, item: HSPC152 cysteine peptide | Ramos soluble proteome | 100 µM, with: iodoacetamide probe | baseline: DMSO over compound-treated, higher = stronger cysteine blockade | isoTOP-ABPP competition ratio | 1.5 |
| COc1cc(Nc2nccc(-c3cnn4nc(OC)ccc34)n2)cc(C(F)(F)F)c1 | Tyrosine-protein kinase ABL1, phosphorylated (ABL1, Homo sapiens, UniProt P00519, M351T) | binding | – | 1 µM | – | remaining binding | 100% |
| O=C1c2sc(-c3ccc(N4CCC(F)C4)nc3F)nc2CCN1c1cccnc1 (stereo not shown) | TAR DNA-binding protein 43, aggregated (TARDBP, Homo sapiens, UniProt Q13148) | saturation autoradiography | human, FTLD-TDP type A brain sections | 40.71 nM | – | specific binding | 107 nM |
| COC(=O)[C@@]1(C(C)C)C=C(C(=O)Nc2cccc(C(=O)Nc3ccc(Nc4nccc(-c5cccnc5)n4)c(C)c3)c2)C(=O)CC1 | Mitogen-activated protein kinase 8 (MAPK8, Homo sapiens, UniProt P45983) | kinase activity, inhibitor | – | 0.5487 µM, unit not given, with: 10 mM glutathione | baseline: no inhibitor | remaining activity | 0.567 |

| Structure (SMILES) | target | test | system | conditions | scale | measurement | value |
| --- | --- | --- | --- | --- | --- | --- | --- |
| CC[C@H]1CN([C@@H](CC)c2ccc(C(F)(F)F)cc2)[C@H](CC)CN1c1nc(=O)n(C)c2ccc(C#N)nc12 | Diacylglycerol kinase eta (DGKH, Homo sapiens, UniProt Q86XP1) | type II DGK | – | concentration not given | – | lipid kinase activity | inactive |
| CC(C)Oc1cc(Cl)ccc1CNc1cc(-c2ccccc2)nc2ncnn12 | G-protein coupled receptor 3 (GPR3, Homo sapiens, UniProt P46089, V196W) | cAMP level, cAMP GloSensor | – | 1 µM | higher = more cAMP | cAMP luminescence | 29300 a.u. and 45300 a.u. and 30700 a.u. and 43500 a.u. |
| CC(=O)c1cnc(NS(=O)(=O)c2ccc(Cl)c(Cl)c2)nc1 | 17-beta-hydroxysteroid dehydrogenase 13 (Homo sapiens, UniProt Q7Z5P4) | enzyme activity | human hepatocytes, HSD17B13 siRNA, culture medium | 48 h | baseline: scramble siRNA control | oxidized product ratio | 0.0572 and 0.0527 and 0.0535 and 0.0465 |
| FC(F)(F)c1ccc(C[N+]2=C3SCCN3C[C@@H]2c2ccccc2)cc1 | acetylcholine-gated chloride channel (Haemonchus contortus, UniProt A0A219KWM7) | ion current, agonist, two-electrode voltage clamp | Haemonchus contortus, Xenopus oocytes | with: acetylcholine 500 µM | baseline: acetylcholine response | Emax | 28% |
| O=C(O)Cc1cc2c(cc1C(=O)c1cccc(Br)c1)OCO2 | Gria1/Gria2 | glutamate-evoked current, whole-cell patch clamp | HEK-293T | concentration not given | – | current amplitude | 101 ± 6 pA |
| CCCCCC(O)/C=C/C=O (stereo not shown) | 26S proteasome regulatory subunit 8 (Homo sapiens, UniProt P62195) | acylphosphate-ATP probe SILAC-ABPP, item: PSMC5 | ZAK-transfected HEK293T | 100 µM, with: acylphosphate-ATP probe | baseline: DMSO over compound-treated | probe labelling ratio | 0.67 |
| CC(C)[C@@H]1NC(=O)[C@H](Cc2ccccc2)NC(=O)CSC[C@@H](C(N)=O)NC(=O)[C@H](CCC(=O)O)NC(=O)[C@H](CO)NC(=O)[C@H](Cc2c[nH]c3cccc(Cl)c23)NC(=O)[C@H](C2CCCCC2)NC(=O)[C@H](C(C)C)NC(=O)[C@H](Cc2ccc(O)cc2)NC(=O)[C@H](CC(=O)O)NC(=O)[C@H](Cc2c[nH]c3ccccc23)NC(=O)[C@H](Cc2ccc(N)nc2)NC(=O)[C@H](Cc2c[nH]c3ccc(Cl)cc23)NC(=O)[C@H](CCC(=O)O)NC1=O | Interleukin-1 receptor-like 2 (IL1RL2, Homo sapiens, UniProt Q9HB29) | reporter gene (SEAP), inhibitor, HEK-Blue IL-36R reporter | HEK-Blue IL-36R cells | 0.41 µM, 6 h, with: IL-36γ 30 ng/mL | – | remaining activity | 101% |
| CC1=CC(C)=[N+]2C1=C(CCCCN1CCCC1)c1c(C)cc(C)n1[B-]2(F)F | Sodium- and chloride-dependent glycine transporter 2 | MS binding competition | – | 10 µM | – | remaining specific binding | 92.3 ± 6.4% |
| CCCCCc1ccc(Cc2cc(/C=C/C(=O)OC)cc3cccnc23)cc1 | GAP50 | surface plasmon resonance | – | – | – | kon | 4590 M⁻¹ s⁻¹ |
| COc1cc2ncnc(Nc3ccc(-c4ccccc4)cc3)c2cc1OC | SMUG1 (Homo sapiens, UniProt Q53HV7) | enzyme activity, activator, fluorescence | – | 20 µM | baseline: control | activity | 220 ± 20% |
| O[C@@H]1[C@@H](O)[C@H](Cl)C=C[C@H]1O | Lysosomal acid glucosylceramidase (GBA1, Homo sapiens, UniProt P04062) | continuous progress curves | – | pH 5.2, 25 °C, 0.1% BSA | – | kinact/Ki | 6.9 ± 0.1 M⁻¹ s⁻¹ |
| CC[C@H](C)[C@@H]1NC(=O)[C@H](C(C)C)NC(=O)[C@H](C(C)C)NC(=O)[C@H](CC(C)C)NC(=O)C[C@@H](C(=O)N[C@@H](Cc2c[nH]c3ccccc23)C(=O)N[C@@H](CC(N)=O)C(=O)N[C@@H](C)C(=O)N2CCC[C@H]2C(=O)NCC(=O)N[C@@H](Cc2c[nH]c3ccccc23)C(=O)N[C@@H](Cc2ccc(O)cc2)C(=O)O)NC(=O)[C@H](C)NC(=O)[C@H](CCC(N)=O)NC(=O)[C@H](C(C)C)NC1=O | Toll-like receptor 4 (TLR4, Homo sapiens, UniProt O00206) | antagonist, ELISA | – | 1 µg/mL, with: LPS | baseline: DMSO control, lower means stronger antagonism | OD450 in LPS binding ELISA | 0.411 a.u. and 0.405 a.u. and 0.423 a.u. and 0.417 a.u. |
| O=C(NC1CCN(Cc2ccccc2)CC1)c1cccc(-c2ccccc2)c1 | Sodium- and chloride-dependent glycine transporter 2 | MS binding competition | – | 10 µM | – | remaining specific binding | 92.2 ± 3.5% |
| C=CC[C@H]1OC(=O)CCNC(=O)[C@H](C)N(C)C(=O)[C@H]([C@@H](C)CC)N(C)C(=O)[C@H]([C@@H](C)CC)NC(=O)[C@@H]2[C@@H](C)CCN2C1=O | Platelet-derived growth factor receptor beta, extracellular domain (PDGFRB, Homo sapiens, UniProt P09619) | SPR, van't Hoff | – | 25 °C | – | TΔS˚ | 4.66 kcal/mol |
| COC(=O)Cc1cc2c(cc1C(=O)c1ccccc1Br)OCO2 | Gria1/Gria2 | glutamate-evoked current, whole-cell patch clamp | HEK-293T | concentration not given, weighted tau, 500 ms pulse, with: glutamate | – | desensitization time constant | 4.9 ± 0.3 ms |

Repeated from above:
| Structure (SMILES) | target | test | system | conditions | scale | measurement | value |
| --- | --- | --- | --- | --- | --- | --- | --- |
| COC(=O)[C@@]1(C(C)C)C=C(C(=O)Nc2cccc(C(=O)Nc3ccc(Nc4nccc(-c5cccnc5)n4)c(C)c3)c2)C(=O)CC1 | Mitogen-activated protein kinase 8 (MAPK8, Homo sapiens, UniProt P45983) | kinase activity, inhibitor | – | 0.5487 µM, unit not given, with: 10 mM glutathione | baseline: no inhibitor | remaining activity | 0.567 |
| CC[C@H]1CN([C@@H](CC)c2ccc(C(F)(F)F)cc2)[C@H](CC)CN1c1nc(=O)n(C)c2ccc(C#N)nc12 | Diacylglycerol kinase eta (DGKH, Homo sapiens, UniProt Q86XP1) | type II DGK | – | concentration not given | – | lipid kinase activity | inactive |
| CC(C)Oc1cc(Cl)ccc1CNc1cc(-c2ccccc2)nc2ncnn12 | G-protein coupled receptor 3 (GPR3, Homo sapiens, UniProt P46089, V196W) | cAMP level, cAMP GloSensor | – | 1 µM | higher = more cAMP | cAMP luminescence | 29300 a.u. and 45300 a.u. and 30700 a.u. and 43500 a.u. |
| CC(=O)c1cnc(NS(=O)(=O)c2ccc(Cl)c(Cl)c2)nc1 | 17-beta-hydroxysteroid dehydrogenase 13 (Homo sapiens, UniProt Q7Z5P4) | enzyme activity | human hepatocytes, HSD17B13 siRNA, culture medium | 48 h | baseline: scramble siRNA control | oxidized product ratio | 0.0572 and 0.0527 and 0.0535 and 0.0465 |
